Published values of several laboratories.
Several values in a cell are separate wells, animals, samples, runs or records. ± marks the error that the study gave.
Cell line: RAW264.7

For `C=C(C)[C@H]1Cc2c(cc(O)c3c2O[C@@H]2COc4cc(OC)c(OC)cc4[C@@H]2C3=O)O1`, the viability was 99.5% (cell growth or viability, MTT; 100 µg/mL, 24 h).
The viability of `COC1OC(C)C(OS(=O)(=O)O)C(OC2OC(C)C(OS(=O)(=O)O)C(OC3OC(C)C(OS(=O)(=O)O)C(OC4OC(C)C(OS(=O)(=O)O)C(OC5OC(C)C(OS(=O)(=O)O)C(OC6OC(C)C(OS(=O)(=O)O)C(OC7OC(C)C(OS(=O)(=O)O)C(OC8OC(C)C(OS(=O)(=O)O)C(OS(=O)(=O)O)C8OS(=O)(=O)O)C7OS(=O)(=O)O)C6OS(=O)(=O)O)C5OS(=O)(=O)O)C4OS(=O)(=O)O)C3OS(=O)(=O)O)C2OS(=O)(=O)O)C1OS(=O)(=O)O` (stereo not shown) is reported as 131% and 117% (CCK-8; concentration not given, 24 h, medium concentration; reference: untreated cells).
With `C/C=C(/NC(=O)CCCCCCC)C(=O)N/C(=C/C)C(=O)N[C@@H](C(=O)N[C@@H](CC(C)C)C(=O)Nc1ccc(C(=O)N[C@H](C(=O)O)[C@@H](C)O)cc1)[C@@H](O)C(C)C` the IC50 was 94 ± 4 µM (cytotoxicity, MTT).
With `CC#CC#C/C=C1/O[C@@]2(CC[C@@H](O)CO2)[C@H](O)[C@H]1OC(=O)CC(C)C` the viability was 92.1 ± 11.2% (MTT; DMEM with 10% FBS; 50 µM, 18 h, with: LPS 1 µg/mL; reference: DMSO).
For `C=Cc1c(C)c2cc3nc(c(CC(=O)[O-])c4[n-]c(cc5nc(cc1[n-]2)C(C)=C5CC)c(C)c4C(=O)[O-])C(CCC(=O)[O-])C3C.[Cu+2].[Na+].[Na+].[Na+]` (stereo not shown), “lowest protective concentration” read 5 to 10 µM (cyclophosphamide cytotoxicity, CellTiter-Glo; with: cyclophosphamide).
The viability of `COc1cc2c(cc1OC)[C@@H]1C(=O)c3c(O)cc4c(c3O[C@@H]1CO2)C=CC(C)(C)O4` is reported as 96.3% (cell growth or viability, MTT; 100 µg/mL, 24 h).
With `COC1OC(C)C(OC2OC(C)C(OS(=O)(=O)O)C(OC3OC(C)C(OC4OC(C)C(OS(=O)(=O)O)C(OC5OC(C)C(OC6OC(C)C(OS(=O)(=O)O)C(OC7OC(C)C(OS(=O)(=O)O)C(OS(=O)(=O)O)C7OS(=O)(=O)O)C6OS(=O)(=O)O)C(OS(=O)(=O)O)C5OS(=O)(=O)O)C4OS(=O)(=O)O)C(OS(=O)(=O)O)C3OS(=O)(=O)O)C2OS(=O)(=O)O)C(OS(=O)(=O)O)C1OS(=O)(=O)O` (stereo not shown) the viability was 105% and 102% and 118% (CCK-8; concentration not given, 24 h, high concentration; reference: untreated cells).
With `CC#CC#C/C=C1/O[C@@]2(CCCCO2)[C@@H](O)[C@@H]1O` the viability was 93.4 ± 9.8% (MTT; DMEM with 10% FBS; 50 µM, 18 h, with: LPS 1 µg/mL; reference: DMSO).
With `C/C=C(/NC(=O)CCCCCCC)C(=O)N/C(=C/C)C(=O)N[C@H](CC(C)C)C(=O)N[C@H](C(=O)Nc1ccc(C(=O)N[C@H](C(=O)O)[C@@H](C)O)cc1)c1ccc(O)cc1` the IC50 was 86.5 ± 1.37 µM (cytotoxicity, MTT).
`CC#CC#C/C=C1/O[C@@]2(CC[C@@H](O)CO2)[C@H](O)[C@H]1OC(C)=O` has a viability of 90.9 ± 14.8% (MTT; DMEM with 10% FBS; 50 µM, 18 h, with: LPS 1 µg/mL; reference: DMSO).
`COC1OC(C)C(OC2OC(C)C(O)C(OC3OC(C)C(OC4OC(C)C(O)C(OC5OC(C)C(OC6OC(C)C(O)C(OC7OC(C)C(OC8OC(C)C(O)C(OS(=O)(=O)O)C8OS(=O)(=O)O)C(OS(=O)(=O)O)C7OS(=O)(=O)O)C6OS(=O)(=O)O)C(OS(=O)(=O)O)C5OS(=O)(=O)O)C4OS(=O)(=O)O)C(OS(=O)(=O)O)C3OS(=O)(=O)O)C2OS(=O)(=O)O)C(OS(=O)(=O)O)C1OS(=O)(=O)O` (stereo not shown) has a viability of 71.1% and 76.9% and 100% (CCK-8; concentration not given, 24 h, low concentration; reference: untreated cells).
The IC50 of `C/C=C(/NC(=O)CCCCCCC)C(=O)N/C(=C/C)C(=O)N[C@H](CC(C)C)C(=O)N[C@@H](CC(C)C)C(=O)Nc1ccc(C(=O)N[C@H](C(=O)O)[C@@H](C)O)cc1` is reported as greater than 100 µM (cytotoxicity, MTT).
For `CC#CC#C/C=C1/O[C@@]2(CC[C@@H](OC(C)=O)CO2)[C@H](O)[C@H]1O`, the viability was 93.4 ± 11.8% (MTT; DMEM with 10% FBS; 50 µM, 18 h, with: LPS 1 µg/mL; reference: DMSO).

Excerpt of the above:
`COC1OC(C)C(OC2OC(C)C(O)C(OC3OC(C)C(OC4OC(C)C(O)C(OC5OC(C)C(OC6OC(C)C(O)C(OC7OC(C)C(OC8OC(C)C(O)C(OS(=O)(=O)O)C8OS(=O)(=O)O)C(OS(=O)(=O)O)C7OS(=O)(=O)O)C6OS(=O)(=O)O)C(OS(=O)(=O)O)C5OS(=O)(=O)O)C4OS(=O)(=O)O)C(OS(=O)(=O)O)C3OS(=O)(=O)O)C2OS(=O)(=O)O)C(OS(=O)(=O)O)C1OS(=O)(=O)O` (stereo not shown) has a viability of 71.1% and 76.9% and 100% (CCK-8; concentration not given, 24 h, low concentration; reference: untreated cells).
